# Results collected from several papers.
# Compare with care: the assays were run in different laboratories.
# Target: Sodium-dependent noradrenaline transporter (SLC6A2, Homo sapiens, UniProt P23975)
# Sequence of UniProt P23975 (whole entry, looked up): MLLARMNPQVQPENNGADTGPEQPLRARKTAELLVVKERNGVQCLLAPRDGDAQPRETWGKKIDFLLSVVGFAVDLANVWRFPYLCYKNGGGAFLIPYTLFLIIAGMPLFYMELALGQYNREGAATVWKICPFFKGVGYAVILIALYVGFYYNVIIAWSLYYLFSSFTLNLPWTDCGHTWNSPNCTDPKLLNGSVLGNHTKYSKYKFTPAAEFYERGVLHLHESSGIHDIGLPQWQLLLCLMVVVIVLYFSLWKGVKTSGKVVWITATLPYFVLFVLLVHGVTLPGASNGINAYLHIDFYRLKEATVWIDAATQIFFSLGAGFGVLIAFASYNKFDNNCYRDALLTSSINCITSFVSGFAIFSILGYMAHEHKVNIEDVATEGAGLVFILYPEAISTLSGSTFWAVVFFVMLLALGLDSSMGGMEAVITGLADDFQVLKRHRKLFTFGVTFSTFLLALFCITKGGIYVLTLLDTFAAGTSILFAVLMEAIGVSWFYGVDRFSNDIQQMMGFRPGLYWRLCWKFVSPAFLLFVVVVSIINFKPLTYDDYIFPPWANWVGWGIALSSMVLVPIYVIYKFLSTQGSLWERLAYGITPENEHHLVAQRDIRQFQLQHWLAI
SMILES,read-out,action,method,tested at,inhibition
O=C1c2sc(-c3ccc(N4CCC(F)C4)nc3F)nc2CCN1c1cccnc1 (stereo not drawn),ligand displacement,,radioligand,1 µM,1%
COc1ccc(C(=O)Nc2c(-c3cccs3)nc3ccccn23)cc1,ligand displacement,,radioligand,10 µM,< 50%
Cc1[nH]nc2c1N=C(c1ccccc1Cl)c1cnc(N3CCOCC3)cc1N2,cell-free assay,,,10 µM,32%
C[Si](C)(C)C[C@H](CN)CC(=O)O,ligand displacement,,radioligand,250 µM,-10%
CNC(=O)C12CC1C(n1cnc3c(NC)nc(C#Cc4ccccc4Cl)nc31)C(O)C2O (stereo not drawn),ligand displacement,,radioligand,10 µM,-98%
O=C(O)COc1cccc(NC(=O)c2cc(-c3cccc(F)c3)ccc2F)c1,ligand displacement,,radioligand,10 µM,5%
Cn1ccc2cc(-n3c(=O)[nH]c4sc5c(c4c3=O)CCCC5)ccc21,transporter uptake,inhibitor,,10 µM,23%
C[Si]1(C[C@H](CN)CC(=O)O)CCCC1,ligand displacement,,radioligand,70 µM,-12%
Brc1ccccc1-c1nnc(CSc2nnnn2-c2ccccc2)o1,ligand displacement,,radioligand,10 µM,8%
CCOC(=O)C12CC1C(n1cnc3c(NC)nc(C#Cc4ccc(F)s4)nc31)C(O)C2O (stereo not drawn),ligand displacement,,radioligand,10 µM,17%
CCC(=O)N(C)c1ccc(Cl)c(Cl)c1,binding,,radioligand binding,10 µM,< 10%
COCC(=O)N1CCc2cc(-c3csc(NC(=O)c4cc(OC)cc(OC)c4)n3)ccc21,,,,10 µM,4%
COc1ccc(C#CC2=C[C@H]3C[C@@]4(OC(=O)C=C24)[C@H]2CC[C@H](C(OC)OC)N32)cc1,ligand displacement,,radioligand,10 µM,8%
COc1ccc(S(=O)(=O)N2CCc3ccccc3C2)cc1N1CCN(C(=O)c2ccc(F)cc2C(F)(F)F)CC1,ligand displacement,,radioligand,1 µM,15.2%
CO[C@@H](C)c1c(NC(=O)Nc2cnc(-n3nccn3)c(C(F)(F)F)c2)cnc2sc(C)nc12,ligand displacement,,radioligand,10 µM,4.2%

# Some of these lines once more:
SMILES,read-out,action,method,tested at,inhibition
CCOC(=O)C12CC1C(n1cnc3c(NC)nc(C#Cc4ccc(F)s4)nc31)C(O)C2O (stereo not drawn),ligand displacement,,radioligand,10 µM,17%
CCC(=O)N(C)c1ccc(Cl)c(Cl)c1,binding,,radioligand binding,10 µM,< 10%
